Measurements of several laboratories.
Protocols differ between the studies behind these lines. Several values in a cell are separate wells, animals, samples, runs or records. ± gives the spread as reported.
CASP7: Caspase-7 (CASP7, Homo sapiens, UniProt P55210)
Sequence of UniProt P55210 (whole entry, looked up): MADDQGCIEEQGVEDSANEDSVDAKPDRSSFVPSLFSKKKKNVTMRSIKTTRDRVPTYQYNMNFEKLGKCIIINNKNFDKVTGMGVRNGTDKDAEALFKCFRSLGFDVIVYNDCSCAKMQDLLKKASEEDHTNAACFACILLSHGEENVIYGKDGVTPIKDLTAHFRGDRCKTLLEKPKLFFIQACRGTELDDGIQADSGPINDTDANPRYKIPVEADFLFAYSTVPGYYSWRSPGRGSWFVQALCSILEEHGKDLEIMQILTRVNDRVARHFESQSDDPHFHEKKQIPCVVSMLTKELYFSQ
T1: G-quadruplex DNA, G-quadruplex (Homo sapiens); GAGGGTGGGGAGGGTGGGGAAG
Sequence of UniProt Q93009 (whole entry, looked up): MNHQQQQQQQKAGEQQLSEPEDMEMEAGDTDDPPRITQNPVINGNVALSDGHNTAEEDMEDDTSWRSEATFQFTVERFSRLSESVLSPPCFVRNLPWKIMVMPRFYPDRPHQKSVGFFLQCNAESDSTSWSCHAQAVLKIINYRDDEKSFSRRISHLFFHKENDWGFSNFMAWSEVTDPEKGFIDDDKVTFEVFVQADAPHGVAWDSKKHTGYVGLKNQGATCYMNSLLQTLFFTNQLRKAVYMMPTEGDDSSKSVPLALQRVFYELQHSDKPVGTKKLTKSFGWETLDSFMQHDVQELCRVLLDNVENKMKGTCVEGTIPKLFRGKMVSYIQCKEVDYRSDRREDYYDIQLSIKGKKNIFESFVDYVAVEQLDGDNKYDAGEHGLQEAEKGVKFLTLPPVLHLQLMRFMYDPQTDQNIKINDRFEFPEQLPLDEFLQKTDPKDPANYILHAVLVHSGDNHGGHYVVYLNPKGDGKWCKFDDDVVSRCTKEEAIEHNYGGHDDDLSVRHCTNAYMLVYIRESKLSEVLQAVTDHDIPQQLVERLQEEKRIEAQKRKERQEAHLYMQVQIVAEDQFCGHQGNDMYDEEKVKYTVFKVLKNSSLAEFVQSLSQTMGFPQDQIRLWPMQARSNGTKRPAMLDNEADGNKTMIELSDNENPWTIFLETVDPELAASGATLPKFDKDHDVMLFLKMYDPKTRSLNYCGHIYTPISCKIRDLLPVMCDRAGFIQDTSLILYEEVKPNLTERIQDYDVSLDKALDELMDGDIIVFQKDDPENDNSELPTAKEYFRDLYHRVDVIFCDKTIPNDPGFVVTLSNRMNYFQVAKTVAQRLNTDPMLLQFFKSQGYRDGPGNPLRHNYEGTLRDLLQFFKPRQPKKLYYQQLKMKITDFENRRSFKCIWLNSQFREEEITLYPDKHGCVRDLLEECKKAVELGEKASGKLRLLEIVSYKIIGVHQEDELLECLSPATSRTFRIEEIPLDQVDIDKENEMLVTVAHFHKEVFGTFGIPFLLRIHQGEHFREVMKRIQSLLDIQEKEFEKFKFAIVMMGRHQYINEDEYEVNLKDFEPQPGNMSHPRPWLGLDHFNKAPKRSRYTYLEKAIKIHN
Sequence of UniProt Q92633 (whole entry, unmodified, looked up): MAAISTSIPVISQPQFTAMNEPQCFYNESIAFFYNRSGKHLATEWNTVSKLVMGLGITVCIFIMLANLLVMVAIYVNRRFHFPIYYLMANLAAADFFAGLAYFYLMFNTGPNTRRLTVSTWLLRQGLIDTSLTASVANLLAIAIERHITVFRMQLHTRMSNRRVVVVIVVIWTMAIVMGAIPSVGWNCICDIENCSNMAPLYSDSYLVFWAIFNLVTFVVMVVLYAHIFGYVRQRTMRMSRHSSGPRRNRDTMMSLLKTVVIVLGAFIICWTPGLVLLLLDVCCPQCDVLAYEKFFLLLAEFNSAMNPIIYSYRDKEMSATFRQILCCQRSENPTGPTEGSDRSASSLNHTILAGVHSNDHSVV
Sequence of UniProt P06748 (whole entry, looked up): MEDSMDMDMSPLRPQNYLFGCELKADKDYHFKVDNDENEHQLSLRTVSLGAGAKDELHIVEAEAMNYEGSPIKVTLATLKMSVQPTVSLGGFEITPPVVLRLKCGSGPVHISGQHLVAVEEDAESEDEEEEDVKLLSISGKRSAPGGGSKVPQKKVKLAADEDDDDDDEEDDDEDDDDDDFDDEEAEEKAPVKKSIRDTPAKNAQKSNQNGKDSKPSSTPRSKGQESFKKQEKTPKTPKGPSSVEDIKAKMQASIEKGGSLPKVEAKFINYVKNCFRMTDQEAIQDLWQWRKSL
Sequence of UniProt Q13148 (whole entry, looked up): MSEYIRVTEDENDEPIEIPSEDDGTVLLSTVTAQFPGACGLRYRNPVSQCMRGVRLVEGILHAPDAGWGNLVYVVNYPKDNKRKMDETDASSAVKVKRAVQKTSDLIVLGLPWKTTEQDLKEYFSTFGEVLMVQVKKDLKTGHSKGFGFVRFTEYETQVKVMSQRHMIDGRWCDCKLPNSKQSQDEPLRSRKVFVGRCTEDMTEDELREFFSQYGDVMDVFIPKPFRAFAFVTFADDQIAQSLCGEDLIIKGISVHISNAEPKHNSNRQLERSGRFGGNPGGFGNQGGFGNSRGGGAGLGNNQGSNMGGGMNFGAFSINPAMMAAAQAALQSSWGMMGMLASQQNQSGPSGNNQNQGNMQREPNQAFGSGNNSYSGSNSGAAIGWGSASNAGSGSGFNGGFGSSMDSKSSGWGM
Sequence of UniProt P34972 (whole entry, looked up): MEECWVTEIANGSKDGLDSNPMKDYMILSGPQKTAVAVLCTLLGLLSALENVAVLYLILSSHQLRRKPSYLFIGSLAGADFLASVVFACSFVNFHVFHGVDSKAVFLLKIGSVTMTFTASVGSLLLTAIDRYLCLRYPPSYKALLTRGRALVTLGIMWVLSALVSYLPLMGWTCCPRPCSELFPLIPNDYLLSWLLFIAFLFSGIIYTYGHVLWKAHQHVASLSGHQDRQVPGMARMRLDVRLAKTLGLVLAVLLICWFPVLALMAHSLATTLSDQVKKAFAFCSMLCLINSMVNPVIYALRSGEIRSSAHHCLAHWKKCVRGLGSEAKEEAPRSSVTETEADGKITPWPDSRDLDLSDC
Sequence of UniProt Q9BRS2 (whole entry, looked up): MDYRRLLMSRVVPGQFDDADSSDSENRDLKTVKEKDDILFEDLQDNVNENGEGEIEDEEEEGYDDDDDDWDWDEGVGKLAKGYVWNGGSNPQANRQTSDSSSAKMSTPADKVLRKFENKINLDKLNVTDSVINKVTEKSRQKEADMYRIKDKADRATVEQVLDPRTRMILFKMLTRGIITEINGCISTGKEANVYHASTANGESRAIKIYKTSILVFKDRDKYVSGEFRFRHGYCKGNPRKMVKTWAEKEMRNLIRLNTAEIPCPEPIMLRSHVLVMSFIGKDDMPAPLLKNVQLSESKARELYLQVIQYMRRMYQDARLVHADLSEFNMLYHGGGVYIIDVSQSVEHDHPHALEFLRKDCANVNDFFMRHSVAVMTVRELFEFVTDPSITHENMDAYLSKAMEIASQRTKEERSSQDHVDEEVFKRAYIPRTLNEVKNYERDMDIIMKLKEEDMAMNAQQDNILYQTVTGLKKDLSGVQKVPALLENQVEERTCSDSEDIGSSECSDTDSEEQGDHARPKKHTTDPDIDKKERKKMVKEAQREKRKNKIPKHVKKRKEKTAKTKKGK
Sequence of UniProt P21397 (whole entry, looked up): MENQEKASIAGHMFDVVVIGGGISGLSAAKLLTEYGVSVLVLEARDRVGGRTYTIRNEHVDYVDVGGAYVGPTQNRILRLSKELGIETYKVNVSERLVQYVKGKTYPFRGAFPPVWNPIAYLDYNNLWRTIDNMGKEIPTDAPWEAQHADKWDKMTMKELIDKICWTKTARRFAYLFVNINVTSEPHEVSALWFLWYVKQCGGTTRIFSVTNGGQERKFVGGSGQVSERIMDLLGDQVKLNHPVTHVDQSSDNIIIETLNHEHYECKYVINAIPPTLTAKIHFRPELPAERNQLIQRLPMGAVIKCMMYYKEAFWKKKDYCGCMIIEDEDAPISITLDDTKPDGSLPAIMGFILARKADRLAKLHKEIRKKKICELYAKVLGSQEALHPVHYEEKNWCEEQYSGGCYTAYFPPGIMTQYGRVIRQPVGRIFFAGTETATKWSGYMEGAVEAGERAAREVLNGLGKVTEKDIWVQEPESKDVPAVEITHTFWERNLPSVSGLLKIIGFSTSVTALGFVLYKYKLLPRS
Sequence of UniProt P19491 (whole entry, looked up): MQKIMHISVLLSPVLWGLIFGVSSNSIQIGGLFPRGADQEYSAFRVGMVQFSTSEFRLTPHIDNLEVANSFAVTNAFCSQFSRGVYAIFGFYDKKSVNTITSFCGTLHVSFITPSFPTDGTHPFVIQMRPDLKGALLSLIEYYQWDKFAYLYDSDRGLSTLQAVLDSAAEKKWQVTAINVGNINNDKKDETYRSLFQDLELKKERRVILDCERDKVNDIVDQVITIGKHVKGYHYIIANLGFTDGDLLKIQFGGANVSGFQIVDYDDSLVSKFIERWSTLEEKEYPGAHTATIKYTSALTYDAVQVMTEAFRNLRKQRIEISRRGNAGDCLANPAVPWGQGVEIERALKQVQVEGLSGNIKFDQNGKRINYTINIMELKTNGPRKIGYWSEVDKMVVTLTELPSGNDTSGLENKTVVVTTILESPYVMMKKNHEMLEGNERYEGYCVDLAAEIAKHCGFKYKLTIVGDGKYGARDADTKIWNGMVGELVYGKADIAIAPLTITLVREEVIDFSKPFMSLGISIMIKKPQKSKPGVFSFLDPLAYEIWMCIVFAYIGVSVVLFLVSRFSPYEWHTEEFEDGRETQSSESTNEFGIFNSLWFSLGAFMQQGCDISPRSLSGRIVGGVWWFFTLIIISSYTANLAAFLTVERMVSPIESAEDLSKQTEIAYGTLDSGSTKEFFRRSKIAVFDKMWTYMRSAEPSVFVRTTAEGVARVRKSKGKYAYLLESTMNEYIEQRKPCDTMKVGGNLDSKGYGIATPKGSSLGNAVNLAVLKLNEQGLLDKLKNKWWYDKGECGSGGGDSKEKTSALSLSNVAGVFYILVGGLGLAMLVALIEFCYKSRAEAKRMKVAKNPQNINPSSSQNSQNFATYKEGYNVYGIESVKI

CC(=O)N[C@@H](CC(=O)O)C(=O)N[C@@H](CCC(=O)O)C(=O)N[C@H](C(=O)N[C@@H](CC(=O)O)C(=O)COC(=O)c1c(C)cccc1C)[C@@H](C)OCc1ccccc1
kinact/KI (CASP7; enzyme activity, inhibitor): 678000 M⁻¹ s⁻¹

O=c1[nH]cnc2c(CNC(CO)COP(=O)(O)O)c[nH]c12 (centres unmarked)
Kii (Hypoxanthine-guanine phosphoribosyltransferase (Trypanosoma cruzi, UniProt Q4DGA3); inhibitor, inhibition pattern versus hypoxanthine; pH 8.3, 37 °C, together with: PRPP 1 mM fixed): 910 nM

CC(C)c1ccc(/C=C/C(=O)c2c[nH]c3ccccc23)cc1
activity vs control (Amine oxidase [flavin-containing] A (MAOA, Homo sapiens, UniProt P21397); enzyme activity, inhibitor; 10 µM): 33.5%

COC(=O)Cc1cc2c(cc1C(=O)c1cccc(Br)c1)OCO2
deactivation time constant (Glutamate receptor 2 (Gria2, Rattus norvegicus, UniProt P19491); glutamate-evoked current, whole-cell patch clamp; HEK-293T; concentration not given, weighted tau, 1 ms pulse, together with: glutamate): 2.9 ± 0.1 ms

CC[C@H](NC(=O)[C@H](CC(C)C)NC(=O)[C@H](CC(=O)O)NC(C)=O)C(=O)N[C@@H](CC(=O)O)C(=O)COC(=O)c1c(C)cccc1C
kinact/KI (CASP7; enzyme activity, inhibitor): 368000 M⁻¹ s⁻¹

N#CN1CC[C@H](C(=O)Nc2nc3c(s2)CN(C(=O)Cn2cc(COCCOCCOCCOCCNC(=O)CCCC[C@@H]4SC[C@@H]5NC(=O)N[C@@H]54)nn2)CC3)C1
iBAQ abundance (Ubiquitin carboxyl-terminal hydrolase 7 (USP7, Homo sapiens, UniProt Q93009); probe binding, affinity probe, neutravidin pull-down LC-MS/MS; HEK293T, cell lysate; 5 µM, 1 h, single replicate, unit not given; higher = more pulled down): 3.95e+06 and 6.13e+06 and 6.7e+06

CCN(CC)C(CO)c1cccc2c(C)c(C)oc12 (centres unmarked)
fold change (Lysophosphatidic acid receptor 1 (LPAR1, Homo sapiens, UniProt Q92633, W271A); G-protein dissociation, agonist, NanoBiT; HEK-293T; 10 nM, W271A mutant; relative to: baseline luminescence): 0.962 and 0.991 and 0.978 and 1.01 and 0.971 and 0.97

CCOC(=O)[C@@H](CCSC)NC(=O)c1ccc(C2CC2)c(Cc2ccc(F)cc2)n1
Ki ratio (Cannabinoid receptor 2 (CNR2, Homo sapiens, UniProt P34972); radioligand binding; relative to: CB1 over CB2 (human)): 2

N#Cc1cc(NC(=O)c2cc(-c3ccccc3)n(-c3ccccc3)n2)ccc1N1CCOCC1
inhibition (Genome polyprotein, NS2B-NS3 protease (dengue virus type 2, UniProt P29990); enzyme activity, fluorogenic AMC substrate; 50 µM): 74%

O=C1c2sc(-c3ccc(N4CCC(CO)CC4)nc3F)nc2CCN1c1cccnc1
specific binding (TAR DNA-binding protein 43, aggregated (TARDBP, Homo sapiens, UniProt Q13148); radioligand binding; human, FTLD-TDP type B sarkosyl-insoluble extract; 1.29 nM): 0.136 nM

Cc1cc(NC(=O)[C@H](O)c2cc(F)cc(F)c2)ccc1-c1cnc(N)c(C(=O)NC(C)C)c1
remaining binding (Serine/threonine-protein kinase RIO1 (RIOK1, Homo sapiens, UniProt Q9BRS2); binding, competition with immobilised ligand; 10 µM): 100%

CC(=O)Nc1ccc(-c2ccnc(NCC3CCC3)n2)cc1
number of kinases hit (human kinase panel; binding, KINOMEscan; 10000 nM, %Ctrl below 1): 1

C#CCCCC(=O)NCC1CN(CCCCCNC(=O)CN(CCN)C(=O)Cn2cnc3c(=O)[nH]c(N)nc32)CCN(CCCCCNC(=O)CN(CCN)C(=O)Cn2cnc3c(=O)[nH]c(N)nc32)CCN(CCCCCNC(=O)CN(CCN)C(=O)Cn2cnc3c(=O)[nH]c(N)nc32)CCN1CCCCCNC(=O)CN(CCN)C(=O)Cn1cnc2c(=O)[nH]c(N)nc21 (centres unmarked)
change in melting temperature (T1, G-quadruplex DNA, G-quadruplex (Homo sapiens); FRET melting): 9.7 °C

N=C(N)NCCC[C@H](NC(=O)[C@@H]1CCCN1C(=O)[C@H](CCCNC(=N)N)NC(=O)[C@@H]1CCCN1C(=O)[C@H](CCCNC(=N)N)NC(=O)[C@@H]1CCCN1C(=O)[C@H](CCCNC(=N)N)NC(=O)[C@@H]1CCCN1C(=O)[C@H](CCCNC(=N)N)NC(=O)[C@@H]1CCCN1C(=O)[C@H](CCCNC(=N)N)NC(=O)[C@@H]1CCCN1C(=O)[C@H](CCCNC(=N)N)NC(=O)[C@@H]1CCCN1C(=O)[C@H](CCCNC(=N)N)NC(=O)[C@@H]1CCCN1C(=O)[C@H](CCCNC(=N)N)NC(=O)[C@@H]1CCCN1C(=O)[C@H](CCCNC(=N)N)NC(=O)[C@@H]1CCCN1C(=O)[C@H](CCCNC(=N)N)NC(=O)[C@@H]1CCCN1C(=O)[C@H](CCCNC(=N)N)NC(=O)[C@@H]1CCCN1C(=O)[C@H](CCCNC(=N)N)NC(=O)[C@@H]1CCCN1C(=O)[C@H](CCCNC(=N)N)NC(=O)[C@@H]1CCCN1C(=O)[C@H](CCCNC(=N)N)NC(=O)[C@@H]1CCCN1C(=O)[C@H](CCCNC(=N)N)NC(=O)[C@@H]1CCCN1C(=O)[C@H](CCCNC(=N)N)NC(=O)[C@@H]1CCCN1C(=O)[C@H](CCCNC(=N)N)NC(=O)[C@@H]1CCCN1C(=O)[C@H](CCCNC(=N)N)NC(=O)[C@@H]1CCCN1C(=O)[C@H](CCCNC(=N)N)NC(=O)[C@@H]1CCCN1C(=O)[C@H](CCCNC(=N)N)NC(=O)[C@@H]1CCCN1C(=O)[C@H](CCCNC(=N)N)NC(=O)[C@@H]1CCCN1C(=O)[C@H](CCCNC(=N)N)NC(=O)[C@@H]1CCCN1C(=O)[C@H](Cc1ccc(O)cc1)NC(=O)[C@H](CO)NC(=O)CN)C(=O)O
radius of gyration (Nucleophosmin (NPM1, Homo sapiens, UniProt P06748); SANS P(r) analysis; 0.5 molar excess over NPM1, 25 °C): 66.94 ± 0.44 Å
